Results collected from several papers.
Each numbered part is a random draw from the data of one study; scales do not carry over between parts.
Sequence of UniProt Q12851 (whole entry, looked up): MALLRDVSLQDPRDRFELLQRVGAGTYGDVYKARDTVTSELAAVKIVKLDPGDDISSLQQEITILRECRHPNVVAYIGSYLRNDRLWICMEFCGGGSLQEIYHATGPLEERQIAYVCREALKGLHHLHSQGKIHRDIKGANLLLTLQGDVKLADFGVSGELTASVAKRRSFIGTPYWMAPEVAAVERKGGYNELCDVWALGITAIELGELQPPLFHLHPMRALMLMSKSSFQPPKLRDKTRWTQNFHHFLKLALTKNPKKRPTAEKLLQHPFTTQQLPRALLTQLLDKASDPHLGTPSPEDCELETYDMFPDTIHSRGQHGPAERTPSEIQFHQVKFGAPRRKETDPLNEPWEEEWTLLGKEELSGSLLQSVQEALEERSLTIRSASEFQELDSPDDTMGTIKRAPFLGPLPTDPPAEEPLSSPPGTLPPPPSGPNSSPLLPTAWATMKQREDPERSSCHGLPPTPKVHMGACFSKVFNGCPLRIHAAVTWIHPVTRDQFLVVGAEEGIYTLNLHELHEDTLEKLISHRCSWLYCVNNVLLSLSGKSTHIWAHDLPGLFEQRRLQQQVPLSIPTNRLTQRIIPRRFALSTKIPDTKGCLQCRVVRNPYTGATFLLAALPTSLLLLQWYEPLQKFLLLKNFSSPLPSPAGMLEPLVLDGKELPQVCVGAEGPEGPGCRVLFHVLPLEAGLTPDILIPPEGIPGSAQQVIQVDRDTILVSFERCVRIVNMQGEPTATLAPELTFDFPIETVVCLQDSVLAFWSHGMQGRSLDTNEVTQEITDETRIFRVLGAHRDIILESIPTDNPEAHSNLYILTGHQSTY
Sequence of UniProt Q9HBH9 (whole entry, looked up): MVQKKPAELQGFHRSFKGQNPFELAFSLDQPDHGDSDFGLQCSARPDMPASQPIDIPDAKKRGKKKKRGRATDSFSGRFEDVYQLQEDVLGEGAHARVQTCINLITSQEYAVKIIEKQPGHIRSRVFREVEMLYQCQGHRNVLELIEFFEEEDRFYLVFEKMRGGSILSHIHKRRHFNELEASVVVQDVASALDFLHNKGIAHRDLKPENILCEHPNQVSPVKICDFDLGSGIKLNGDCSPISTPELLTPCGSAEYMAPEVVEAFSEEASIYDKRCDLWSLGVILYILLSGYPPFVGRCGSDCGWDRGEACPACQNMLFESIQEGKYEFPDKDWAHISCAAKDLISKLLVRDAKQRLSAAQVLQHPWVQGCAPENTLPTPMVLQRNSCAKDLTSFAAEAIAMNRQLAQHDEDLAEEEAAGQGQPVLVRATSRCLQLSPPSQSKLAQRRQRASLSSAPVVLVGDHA
Sequence of UniProt Q09013 (whole entry, looked up): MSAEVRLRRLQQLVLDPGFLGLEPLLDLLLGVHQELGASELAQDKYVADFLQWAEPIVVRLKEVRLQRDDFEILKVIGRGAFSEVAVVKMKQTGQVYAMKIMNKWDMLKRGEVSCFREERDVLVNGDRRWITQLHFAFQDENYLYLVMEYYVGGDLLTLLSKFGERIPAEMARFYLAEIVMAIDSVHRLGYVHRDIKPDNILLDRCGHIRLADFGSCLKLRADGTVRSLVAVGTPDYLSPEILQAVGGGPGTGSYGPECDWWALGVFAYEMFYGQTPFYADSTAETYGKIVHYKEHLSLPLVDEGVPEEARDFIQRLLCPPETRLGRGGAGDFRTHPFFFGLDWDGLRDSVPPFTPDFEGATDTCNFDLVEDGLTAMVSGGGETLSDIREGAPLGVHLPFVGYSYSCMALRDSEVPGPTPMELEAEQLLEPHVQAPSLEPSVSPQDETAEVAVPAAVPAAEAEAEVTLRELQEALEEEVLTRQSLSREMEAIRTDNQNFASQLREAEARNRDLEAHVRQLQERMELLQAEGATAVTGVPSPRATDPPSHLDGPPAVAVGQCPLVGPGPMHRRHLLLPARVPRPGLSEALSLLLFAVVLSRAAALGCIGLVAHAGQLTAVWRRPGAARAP
Sequence of UniProt Q00532 (whole entry, looked up): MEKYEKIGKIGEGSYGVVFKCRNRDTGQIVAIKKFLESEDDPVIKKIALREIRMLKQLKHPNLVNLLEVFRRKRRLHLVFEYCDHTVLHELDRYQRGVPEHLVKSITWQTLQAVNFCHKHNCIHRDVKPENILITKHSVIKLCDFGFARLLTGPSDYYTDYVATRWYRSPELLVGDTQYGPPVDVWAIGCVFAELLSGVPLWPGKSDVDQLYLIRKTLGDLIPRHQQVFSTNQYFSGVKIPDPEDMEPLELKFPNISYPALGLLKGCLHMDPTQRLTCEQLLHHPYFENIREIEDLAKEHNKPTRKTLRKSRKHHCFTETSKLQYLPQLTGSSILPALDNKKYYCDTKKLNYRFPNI
Sequence of UniProt Q13976 (whole entry, looked up): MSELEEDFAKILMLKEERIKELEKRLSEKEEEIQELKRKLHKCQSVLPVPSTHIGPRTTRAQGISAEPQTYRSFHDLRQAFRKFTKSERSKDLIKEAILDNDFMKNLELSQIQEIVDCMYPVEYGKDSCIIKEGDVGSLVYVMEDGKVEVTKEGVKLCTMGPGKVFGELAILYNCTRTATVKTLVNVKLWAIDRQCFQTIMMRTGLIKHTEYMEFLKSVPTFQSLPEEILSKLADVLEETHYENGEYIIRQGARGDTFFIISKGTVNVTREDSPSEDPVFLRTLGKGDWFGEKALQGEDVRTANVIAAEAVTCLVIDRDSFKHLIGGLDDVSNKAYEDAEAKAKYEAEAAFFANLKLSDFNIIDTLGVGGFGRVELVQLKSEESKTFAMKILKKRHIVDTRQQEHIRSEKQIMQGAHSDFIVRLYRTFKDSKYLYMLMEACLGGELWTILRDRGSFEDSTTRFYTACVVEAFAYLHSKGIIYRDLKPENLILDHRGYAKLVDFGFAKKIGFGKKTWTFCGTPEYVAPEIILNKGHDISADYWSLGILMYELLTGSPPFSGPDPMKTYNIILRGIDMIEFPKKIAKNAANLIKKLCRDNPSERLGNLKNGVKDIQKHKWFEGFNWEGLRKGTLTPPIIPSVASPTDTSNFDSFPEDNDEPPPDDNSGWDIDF
Sequence of UniProt Q13163 (whole entry, looked up): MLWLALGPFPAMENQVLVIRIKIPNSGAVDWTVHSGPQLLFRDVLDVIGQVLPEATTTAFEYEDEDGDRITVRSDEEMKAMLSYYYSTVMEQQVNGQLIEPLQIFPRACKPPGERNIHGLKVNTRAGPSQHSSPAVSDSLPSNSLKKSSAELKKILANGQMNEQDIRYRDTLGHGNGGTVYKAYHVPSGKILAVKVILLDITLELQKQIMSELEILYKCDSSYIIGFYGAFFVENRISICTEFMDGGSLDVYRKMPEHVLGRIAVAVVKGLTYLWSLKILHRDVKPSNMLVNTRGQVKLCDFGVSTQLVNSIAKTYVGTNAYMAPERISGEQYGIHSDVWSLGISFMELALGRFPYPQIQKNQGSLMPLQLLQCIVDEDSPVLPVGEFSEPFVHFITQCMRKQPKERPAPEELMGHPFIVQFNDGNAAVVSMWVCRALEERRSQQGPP
Sequence of UniProt P10721 (whole entry, looked up): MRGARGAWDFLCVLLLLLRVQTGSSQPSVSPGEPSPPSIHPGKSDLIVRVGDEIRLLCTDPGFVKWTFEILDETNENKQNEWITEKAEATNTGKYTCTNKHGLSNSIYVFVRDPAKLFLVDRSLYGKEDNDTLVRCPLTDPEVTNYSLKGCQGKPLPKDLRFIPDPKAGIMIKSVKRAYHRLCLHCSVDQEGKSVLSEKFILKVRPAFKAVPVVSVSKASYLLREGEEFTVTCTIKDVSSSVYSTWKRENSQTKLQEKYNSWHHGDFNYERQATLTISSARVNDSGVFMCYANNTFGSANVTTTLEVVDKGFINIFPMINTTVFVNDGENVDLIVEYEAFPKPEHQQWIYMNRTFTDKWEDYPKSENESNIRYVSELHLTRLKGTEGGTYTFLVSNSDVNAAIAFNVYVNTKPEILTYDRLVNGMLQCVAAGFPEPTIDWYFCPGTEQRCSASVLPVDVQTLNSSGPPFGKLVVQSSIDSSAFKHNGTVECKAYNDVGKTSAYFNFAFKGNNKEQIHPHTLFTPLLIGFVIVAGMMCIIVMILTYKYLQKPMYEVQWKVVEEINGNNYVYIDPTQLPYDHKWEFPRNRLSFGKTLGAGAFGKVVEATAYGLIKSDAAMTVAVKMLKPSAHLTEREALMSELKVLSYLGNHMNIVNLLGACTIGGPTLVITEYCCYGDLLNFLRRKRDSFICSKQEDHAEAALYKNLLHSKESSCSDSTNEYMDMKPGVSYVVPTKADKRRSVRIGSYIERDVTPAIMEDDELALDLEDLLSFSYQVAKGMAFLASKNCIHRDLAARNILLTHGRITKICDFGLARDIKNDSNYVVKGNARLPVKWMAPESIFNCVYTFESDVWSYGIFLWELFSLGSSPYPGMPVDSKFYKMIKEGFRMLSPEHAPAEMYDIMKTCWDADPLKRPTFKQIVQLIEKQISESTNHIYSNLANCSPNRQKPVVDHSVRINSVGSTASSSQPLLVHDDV
Sequence of UniProt P49841 (whole entry, looked up): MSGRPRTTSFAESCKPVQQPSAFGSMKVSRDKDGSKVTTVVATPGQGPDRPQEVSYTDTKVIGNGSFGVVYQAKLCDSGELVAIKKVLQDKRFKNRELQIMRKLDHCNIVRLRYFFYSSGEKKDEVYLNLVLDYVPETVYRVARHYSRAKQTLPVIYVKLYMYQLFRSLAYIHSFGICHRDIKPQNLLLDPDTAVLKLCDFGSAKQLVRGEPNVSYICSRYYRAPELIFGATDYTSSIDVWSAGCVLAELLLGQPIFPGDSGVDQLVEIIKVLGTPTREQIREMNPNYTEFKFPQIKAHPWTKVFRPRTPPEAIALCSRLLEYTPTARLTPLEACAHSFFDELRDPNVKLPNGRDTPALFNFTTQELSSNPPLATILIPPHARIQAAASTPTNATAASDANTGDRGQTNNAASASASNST

Sample 1
SMILES: Nc1nc(Nc2ccc(S(N)(=O)=O)cc2)nn1C(=S)Nc1c(F)cccc1F
Observed: enzyme activity
Action: inhibitor
Concentration: 0.5 µM
Baseline: control
target	remaining activity
PRKG1 (Homo sapiens, UniProt Q13976)	91.3%
MAP4K2 (Homo sapiens, UniProt Q12851)	2.13%
EPHA5 (Homo sapiens, UniProt P54756)	56.7%
MAPK13 (Homo sapiens, UniProt O15264)	77.1%
IRAK4 (Homo sapiens, UniProt Q9NWZ3)	19.6%
PRKCI (Homo sapiens, UniProt P41743)	78.9%
PRKCD (Homo sapiens, UniProt Q05655)	22.2%
PLK2 (Homo sapiens, UniProt Q9NYY3)	88.5%
WNK2 (Homo sapiens, UniProt Q9Y3S1)	97.9%
MKNK2 (Homo sapiens, UniProt Q9HBH9)	17.2%
BTK (Homo sapiens, UniProt Q06187)	84.1%
MAP2K6 (Homo sapiens, UniProt P52564)	62.7%
CSNK2A1 (Homo sapiens, UniProt P68400)	76.6%
AKT3 (Homo sapiens, UniProt Q9Y243)	96.4%
Cyclin-dependent kinase 9, with cyclin T1 (CDK9, Homo sapiens, UniProt P50750)	15.6%
NEK4 (Homo sapiens, UniProt P51957)	60.5%
MAPK12 (Homo sapiens, UniProt P53778)	95.2%
LYN (Homo sapiens, UniProt P07948)	27.2%
LRRK2 (Homo sapiens, UniProt Q5S007)	1.33%
MAP3K10 (Homo sapiens, UniProt Q02779)	3%
KIT (Homo sapiens, UniProt P10721)	78.4%

Sample 2
SMILES: Cc1noc([C@H]2C[C@@H](c3ccc(C(F)(F)F)cc3)CN(C(=O)N3CCS(=O)(=O)C3)C2)n1
Concentration: 1 µM
target	test	remaining binding [%]
CDK19 (Homo sapiens, UniProt Q9BWU1)	competition binding	100
CHUK (Homo sapiens, UniProt O15111)	cell-free assay, competition with immobilised ligand	100
CDKL1 (Homo sapiens, UniProt Q00532)	binding, competition with immobilised ligand	100
WNK3 (Homo sapiens, UniProt Q9BYP7)	cell-free assay, competition with immobilised ligand	76
BMPR1B (Homo sapiens, UniProt O00238)	cell-free assay, competition with immobilised ligand	100
DMPK (Homo sapiens, UniProt Q09013)	cell-free assay, competition with immobilised ligand	100
PRKD3 (Homo sapiens, UniProt O94806)	cell-free assay, competition with immobilised ligand	100
WEE1 (Homo sapiens, UniProt P30291)	cell-free assay, competition with immobilised ligand	100
MAP3K6 (Homo sapiens, UniProt O95382)	cell-free assay, competition with immobilised ligand	92
CSNK1D (Homo sapiens, UniProt P48730)	cell-free assay, competition with immobilised ligand	100
Ribosomal protein S6 kinase alpha-2, N-terminal kinase domain (RPS6KA2, Homo sapiens, UniProt Q15349)	cell-free assay, competition with immobilised ligand	100
PIK3CA (Homo sapiens, UniProt P42336, E542K)	cell-free assay, competition with immobilised ligand	71
LIM domain kinase 2 (LIMK2, Homo sapiens, UniProt P53671)	cell-free assay, competition with immobilised ligand	100
MYLK4 (Homo sapiens, UniProt Q86YV6)	cell-free assay, competition with immobilised ligand	100
MKNK2 (Homo sapiens, UniProt Q9HBH9)	cell-free assay, competition with immobilised ligand	100
CSNK2A2 (Homo sapiens, UniProt P19784)	cell-free assay, competition with immobilised ligand	90
MAP2K4 (Homo sapiens, UniProt P45985)	cell-free assay, competition with immobilised ligand	100
AKT2 (Homo sapiens, UniProt P31751)	cell-free assay, competition with immobilised ligand	96
FLT3 (Homo sapiens, UniProt P36888, D835V/ITD)	cell-free assay, competition with immobilised ligand	89
SIK2 (Homo sapiens, UniProt Q9H0K1)	cell-free assay, competition with immobilised ligand	100
MAP4K2 (Homo sapiens, UniProt Q12851)	cell-free assay, competition with immobilised ligand	100
Tyrosine-protein kinase ABL1, non-phosphorylated (ABL1, Homo sapiens, UniProt P00519, F317L)	cell-free assay, competition with immobilised ligand	100
STK32C (Homo sapiens, UniProt Q86UX6)	cell-free assay, competition with immobilised ligand	100
GSK3B (Homo sapiens, UniProt P49841)	cell-free assay, competition with immobilised ligand	92
BMPR2 (Homo sapiens, UniProt Q13873)	cell-free assay, competition with immobilised ligand	100

Sample 3
Host: mouse
Matrix: microsomes or S9
Concentration: 2 µM
Time: 0.5 h
SMILES	remaining compound [%]
COc1cc(=O)[nH]cc1C(=O)N(C)C1(Cc2ccccc2)CCCC1	0.168
Cc1ccc(S(=O)(=O)c2nc(S(C)(=O)=O)sc2NC2CCS(=O)(=O)C2)cc1 (centres unmarked)	10.6
CCn1nc(C)c(CNc2nnc(C3CCCCC3)o2)c1C	5.13
COCCc1noc(C(C)n2ccnc2-c2cc(F)cc(F)c2)n1 (centres unmarked)	0.755
O=C(CCn1c2c(c3ccccc31)CCn1c-2nc2ccccc2c1=O)N1CCN(Cc2cccnc2)CC1	4
Cc1ccc(C2(c3noc(Cn4ccnc4)n3)CCCC2)cc1	39.1
Cc1cccc(C)c1C1=NOC(C)(CS(=O)(=O)C2=NOC(C)(C)C2)C1 (centres unmarked)	0.114
C/C(=C\c1ccc(C(=O)O)cc1)CN1CCN(c2ccccn2)CC1	53
CCn1c(=O)n(CC)c2cc(NS(C)(=O)=O)c(Br)cc21	98.1
CN1C(=O)c2cccc3c2C1=Cc1ccc2ccccc2c1O3	52.8
CCOCCOC(=O)C(C)Oc1ccc(Oc2ncc(Cl)cc2Cl)cc1 (centres unmarked)	0
CC(C)(CCS(C)(=O)=O)CNc1cc(C#N)nc2ccccc12	30.3
COc1ccccc1CNC(=O)c1c(OCC2CC2)cc(=O)n2c1CCCCC2	0.0836
CNC(=O)C1CCN(c2nc(Nc3ccc4[nH]ncc4c3)nc(OC)n2)CC1	7.28
CC(C)(CNC(=O)[C@@H]1OCC[C@@H]1Cn1cccn1)C1CCOCC1	18.4
Cc1cnn(C2CCCC2)c1NC(=O)N1CCC[C@H]1c1nc(C(C)C)no1	45.1

Sample 4
SMILES: O=C(Nc1ccccc1)Nc1cccc(Oc2ccc3nccn3n2)c1
Concentration: 1 µM
target	test	conditions	scale	remaining binding
BUB1 (Homo sapiens, UniProt O43683)	competitive binding panel		baseline: vehicle	100%
CDKL5 (Homo sapiens, UniProt O76039)	competitive binding panel		baseline: vehicle	98%
STK38L (Homo sapiens, UniProt Q9Y2H1)	competitive binding panel, refers to: NDR2		baseline: vehicle	100%
MAPK7 (Homo sapiens, UniProt Q13164)	competitive binding panel, refers to: ERK5		baseline: vehicle	100%
HUNK (Homo sapiens, UniProt P57058)	competitive binding panel		baseline: vehicle	82%
TNNI3K (Homo sapiens, UniProt Q59H18)	competitive binding panel		baseline: vehicle	100%
PIM2 (Homo sapiens, UniProt Q9P1W9)	competitive binding panel		baseline: vehicle	98%
DSTYK (Homo sapiens, UniProt Q6XUX3)	competitive binding panel, refers to: RIPK5		baseline: vehicle	100%
IKBKB (Homo sapiens, UniProt O14920)	competitive binding	IKK-beta		100%
MAPK10 (Homo sapiens, UniProt P53779)	competitive binding	JNK3		100%
SIK1 (Homo sapiens, UniProt P57059)	competitive binding	SIK		100%
CSNK1G2 (Homo sapiens, UniProt P78368)	competitive binding panel		baseline: vehicle	100%
DAPK3 (Homo sapiens, UniProt O43293)	competitive binding panel		baseline: vehicle	100%
DMPK (Homo sapiens, UniProt Q09013)	competitive binding panel		baseline: vehicle	96%
RAF1 (Homo sapiens, UniProt P04049)	competitive binding panel		baseline: vehicle	79%
MAP2K5 (Homo sapiens, UniProt Q13163)	competitive binding panel, refers to: MEK5		baseline: vehicle	63%
RPS6KA5 (Homo sapiens, UniProt O75582)	competitive binding scan	C-terminal kinase domain 2		100%
CSK (Homo sapiens, UniProt P41240)	competitive binding panel		baseline: vehicle	100%

Some of these lines once more (sample 2):
target	test	remaining binding [%]
CDK19 (Homo sapiens, UniProt Q9BWU1)	competition binding	100
CHUK (Homo sapiens, UniProt O15111)	cell-free assay, competition with immobilised ligand	100
CDKL1 (Homo sapiens, UniProt Q00532)	binding, competition with immobilised ligand	100
WNK3 (Homo sapiens, UniProt Q9BYP7)	cell-free assay, competition with immobilised ligand	76
